Assay results collected from several papers.
Each numbered part is a random draw from the data of one study; scales do not carry over between parts. Values joined by “and” are separate records of one study, mostly repeats; a detail may differ.
Chain of UniProt P46934 (whole entry, looked up): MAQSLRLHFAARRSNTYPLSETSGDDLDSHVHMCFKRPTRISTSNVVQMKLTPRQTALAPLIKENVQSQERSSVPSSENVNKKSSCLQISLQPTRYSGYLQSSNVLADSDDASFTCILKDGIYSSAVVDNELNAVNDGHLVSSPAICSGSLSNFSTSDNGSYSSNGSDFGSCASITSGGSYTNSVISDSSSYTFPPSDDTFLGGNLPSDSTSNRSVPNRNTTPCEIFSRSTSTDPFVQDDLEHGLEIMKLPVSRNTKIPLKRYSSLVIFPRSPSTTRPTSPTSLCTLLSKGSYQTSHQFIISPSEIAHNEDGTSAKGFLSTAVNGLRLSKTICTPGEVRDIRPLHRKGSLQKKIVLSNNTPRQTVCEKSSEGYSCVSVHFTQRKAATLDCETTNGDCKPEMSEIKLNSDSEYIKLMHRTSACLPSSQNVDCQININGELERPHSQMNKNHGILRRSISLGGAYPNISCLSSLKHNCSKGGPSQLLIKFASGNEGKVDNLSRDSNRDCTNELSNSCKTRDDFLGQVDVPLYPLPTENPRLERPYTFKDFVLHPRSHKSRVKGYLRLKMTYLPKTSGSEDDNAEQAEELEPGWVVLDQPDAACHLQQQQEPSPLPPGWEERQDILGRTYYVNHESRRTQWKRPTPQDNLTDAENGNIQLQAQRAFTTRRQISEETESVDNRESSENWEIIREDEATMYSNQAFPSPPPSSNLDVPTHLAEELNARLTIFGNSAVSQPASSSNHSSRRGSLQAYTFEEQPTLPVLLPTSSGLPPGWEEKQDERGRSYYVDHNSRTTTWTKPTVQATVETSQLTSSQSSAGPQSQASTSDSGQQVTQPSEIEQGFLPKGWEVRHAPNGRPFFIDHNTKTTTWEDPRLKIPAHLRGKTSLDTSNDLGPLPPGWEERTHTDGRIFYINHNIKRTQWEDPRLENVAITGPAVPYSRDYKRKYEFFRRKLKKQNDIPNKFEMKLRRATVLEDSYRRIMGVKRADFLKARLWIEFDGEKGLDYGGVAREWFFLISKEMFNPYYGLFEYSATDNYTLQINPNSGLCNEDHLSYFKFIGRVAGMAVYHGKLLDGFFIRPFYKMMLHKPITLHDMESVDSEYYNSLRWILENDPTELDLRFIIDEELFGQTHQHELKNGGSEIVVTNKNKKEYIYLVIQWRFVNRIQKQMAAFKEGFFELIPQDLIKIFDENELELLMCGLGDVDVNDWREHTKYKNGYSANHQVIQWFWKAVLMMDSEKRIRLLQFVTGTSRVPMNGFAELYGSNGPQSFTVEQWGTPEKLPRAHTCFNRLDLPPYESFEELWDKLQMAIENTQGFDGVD

Series 1
Structure (SMILES): C[C@@H]1CN(c2ccc(-c3cc(C(=O)NCCOCCOCCOCCOCCNC(=O)/C=C/c4[nH]cc(C(=O)N[C@@H](CC(N)=O)c5ccc(F)c(Cl)c5)c4-c4ccc(Cl)cc4F)ccc3F)cc2NC(=O)c2c[nH]c(=O)cc2C(F)(F)F)C[C@H](C)N1C
Effect on: thermal unfolding
Method: differential scanning fluorimetry
Tested at: 5.5 µM
Reading: higher = more unfolded
WDR5: WD repeat-containing protein 5 (WDR5, Homo sapiens, UniProt P61964)
DCAF1: DDB1- and CUL4-associated factor 1 (DCAF1, Homo sapiens, UniProt Q9Y4B6)
Chain of UniProt Q9Y4B6 (whole entry, looked up): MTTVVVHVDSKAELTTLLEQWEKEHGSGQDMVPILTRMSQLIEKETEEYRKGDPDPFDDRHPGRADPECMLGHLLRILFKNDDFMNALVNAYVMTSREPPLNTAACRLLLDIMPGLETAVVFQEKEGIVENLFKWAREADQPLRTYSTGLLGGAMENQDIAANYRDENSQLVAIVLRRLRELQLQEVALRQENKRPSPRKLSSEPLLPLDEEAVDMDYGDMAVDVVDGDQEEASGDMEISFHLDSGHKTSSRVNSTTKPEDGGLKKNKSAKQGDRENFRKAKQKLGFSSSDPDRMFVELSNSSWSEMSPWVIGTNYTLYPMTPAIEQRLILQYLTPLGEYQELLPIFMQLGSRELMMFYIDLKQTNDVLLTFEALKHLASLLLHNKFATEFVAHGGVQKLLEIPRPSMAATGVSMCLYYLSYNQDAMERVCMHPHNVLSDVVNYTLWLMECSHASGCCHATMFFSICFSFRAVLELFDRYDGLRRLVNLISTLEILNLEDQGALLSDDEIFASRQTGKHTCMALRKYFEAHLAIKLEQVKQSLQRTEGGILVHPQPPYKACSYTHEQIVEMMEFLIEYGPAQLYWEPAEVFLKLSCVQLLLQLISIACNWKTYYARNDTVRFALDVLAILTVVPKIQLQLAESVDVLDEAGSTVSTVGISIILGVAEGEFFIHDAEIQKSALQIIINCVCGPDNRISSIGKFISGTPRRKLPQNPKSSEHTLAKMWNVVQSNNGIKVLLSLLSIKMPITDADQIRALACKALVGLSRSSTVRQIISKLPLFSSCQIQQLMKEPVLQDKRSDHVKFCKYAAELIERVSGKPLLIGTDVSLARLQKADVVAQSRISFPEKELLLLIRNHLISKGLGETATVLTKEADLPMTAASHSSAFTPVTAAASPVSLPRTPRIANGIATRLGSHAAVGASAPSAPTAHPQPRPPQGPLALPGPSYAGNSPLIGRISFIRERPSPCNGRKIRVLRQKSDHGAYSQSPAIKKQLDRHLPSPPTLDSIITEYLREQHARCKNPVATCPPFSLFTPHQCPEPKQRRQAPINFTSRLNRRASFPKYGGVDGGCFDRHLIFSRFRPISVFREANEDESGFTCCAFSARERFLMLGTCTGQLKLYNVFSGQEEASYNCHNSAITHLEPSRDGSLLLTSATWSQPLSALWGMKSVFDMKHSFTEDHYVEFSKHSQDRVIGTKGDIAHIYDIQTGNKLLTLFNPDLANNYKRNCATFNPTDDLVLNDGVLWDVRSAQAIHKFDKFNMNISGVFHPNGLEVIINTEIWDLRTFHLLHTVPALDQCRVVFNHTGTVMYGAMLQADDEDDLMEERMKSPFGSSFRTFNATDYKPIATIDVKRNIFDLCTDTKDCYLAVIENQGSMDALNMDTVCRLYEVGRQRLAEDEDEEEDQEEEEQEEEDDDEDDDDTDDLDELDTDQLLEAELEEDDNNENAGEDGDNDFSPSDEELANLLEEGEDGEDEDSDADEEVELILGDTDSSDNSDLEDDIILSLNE
| target | temperature | SYPRO Orange fluorescence |
| --- | --- | --- |
| WDR5 | 36.2 °C | 13500 a.u. |
| DCAF1 | 61.81 °C | 49200 a.u. |
| WDR5 | 90.01 °C | 51100 a.u. |
| DCAF1 | 62.01 °C | 50100 a.u. |
| DCAF1 | 83.01 °C | 42300 a.u. |
| DCAF1 | 67.41 °C | 58600 a.u. |
| DCAF1 | 39.8 °C | 11500 a.u. |
| WDR5 | 87.01 °C | 53700 a.u. |
| WDR5 | 48 °C | 15900 a.u. |

Series 2
Cell line: Gaucher fibroblasts L444P/L444P
Method: 4-MUG hydrolysis, cell lysate
Tested at: 0.1 µM
Reference: DMSO
| Compound | GCase activity |
| --- | --- |
| Ic1ccc(Nc2nc(N3CCOCC3)nc(N3CCOCC3)n2)cc1 | 103% and 102% and 141% and 106% |
| Cc1ccc(Nc2nc(NCCN3CCOCC3)nc(N3CCOCC3)n2)cc1 | 97.8% and 112% and 99.2% and 108% and 95.9% and 94.1% |
| Ic1ccc(Nc2nc(NCCc3c[nH]c4ccccc34)nc(NCCN3CCOCC3)n2)cc1 | 101% and 102% and 94% and 99.7% |
| Ic1ccc(Nc2nc(NCCN3CCOCC3)nc(N3CCNCC3)n2)cc1 | 101% and 94.9% and 94.4% and 97.8% and 96.8% |
| Ic1ccc(Nc2nc(NCCN3CCOCC3)nc(N3CC4CCC(C3)O4)n2)cc1 | 104% and 103% and 99.5% |
| Ic1ccc(Nc2nc(NCCCN3CCOCC3)nc(N3CCOCC3)n2)cc1 | 102% and 110% and 109% and 106% and 108% |

Further values, each from its own experiment
| Compound | tested on | test | system | setting | scale | measurement | value |
| --- | --- | --- | --- | --- | --- | --- | --- |
| Cc1ncsc1-c1ccc(C(CO)NC(=O)C2CC(O)CN2C(=O)C(C(C)C)n2cc(-c3ccc(COc4c(-c5c(C)c(F)cc6[nH]ncc56)c(C5CC5)cc5c(N6CC7CC6CN7)nc(OC6CCOCC6)nc45)cc3)nn2)cc1 (stereo not drawn) |  |  | male Balb/c nu/nu mouse (PK-59 xenograft), pancreas | intravenous, 30 mg/kg, 6 h |  | concentration | 702 ng/g |
| CNCCCN1c2ccccc2CCc2ccc(Cl)cc21 | E3 ubiquitin-protein ligase NEDD4, HECT domain (Homo sapiens, UniProt P46934) | enzyme activity, inhibitor, Ub-TR-FRET | HECT domain | 100 µM | higher = more chain formation | ubiquitin chain formation AUC | 27700 a.u. and 25700 a.u. and 112000 a.u. and 27100 a.u. |
| Cc1ncsc1-c1ccc(C(CO)NC(=O)C2CC(O)CN2C(=O)C(NC(=O)c2ccc(COc3c(-c4c(C)c(F)cc5[nH]ncc45)c(C4CC4)cc4c(N5CC6CC5CN6)nc(OC5CCOCC5)nc34)cc2)C(C)C)cc1 (stereo not drawn) | GTPase KRas, GDP-bound (KRAS, Homo sapiens, UniProt P01116, G12D) | binder, multi-cycle SPR |  | binary, without VCB |  | dissociation rate constant (kd) | 0.00715 s⁻¹ and 0.00605 s⁻¹ and 0.00466 s⁻¹ and 0.00632 s⁻¹ and 0.00804 s⁻¹ |

Excerpt of the above (further values, each from its own experiment):
| Compound | tested on | test | system | setting | scale | measurement | value |
| --- | --- | --- | --- | --- | --- | --- | --- |
| Cc1ncsc1-c1ccc(C(CO)NC(=O)C2CC(O)CN2C(=O)C(C(C)C)n2cc(-c3ccc(COc4c(-c5c(C)c(F)cc6[nH]ncc56)c(C5CC5)cc5c(N6CC7CC6CN7)nc(OC6CCOCC6)nc45)cc3)nn2)cc1 (stereo not drawn) |  |  | male Balb/c nu/nu mouse (PK-59 xenograft), pancreas | intravenous, 30 mg/kg, 6 h |  | concentration | 702 ng/g |
| CNCCCN1c2ccccc2CCc2ccc(Cl)cc21 | E3 ubiquitin-protein ligase NEDD4, HECT domain (Homo sapiens, UniProt P46934) | enzyme activity, inhibitor, Ub-TR-FRET | HECT domain | 100 µM | higher = more chain formation | ubiquitin chain formation AUC | 27700 a.u. and 25700 a.u. and 112000 a.u. and 27100 a.u. |
| Cc1ncsc1-c1ccc(C(CO)NC(=O)C2CC(O)CN2C(=O)C(NC(=O)c2ccc(COc3c(-c4c(C)c(F)cc5[nH]ncc45)c(C4CC4)cc4c(N5CC6CC5CN6)nc(OC5CCOCC5)nc34)cc2)C(C)C)cc1 (stereo not drawn) | GTPase KRas, GDP-bound (KRAS, Homo sapiens, UniProt P01116, G12D) | binder, multi-cycle SPR |  | binary, without VCB |  | dissociation rate constant (kd) | 0.00715 s⁻¹ and 0.00605 s⁻¹ and 0.00466 s⁻¹ and 0.00632 s⁻¹ and 0.00804 s⁻¹ |
